Measured values from different studies.
Compare with care: the assays were run in different laboratories.
Organism: Leishmania donovani

CCCCCCCCCCCCCCCCC1CC(=O)NCCCN(C)CCCCN(C)CCCN1C (centres unmarked) — IC50 (Alamar blue; 72 h, 26 °C, promastigotes): 1.2 µg/mL
COc1ccc(-c2c(O)cc(O)c3c2C[C@@H](C)N(C)[C@@H]3C)c2cc(C)cc(OC)c12 (single isomer, unassigned) — IC50 (MHOM/ET/67/L82, amastigotes): > 100 µM
CCOC(=O)CNC(=O)CN1C(=O)S/C(=C\c2ccc(C)cc2)C1=O — IC50 (parasite growth, resazurin; promastigote): 91.4 µM
CC(=O)Oc1ccc(Cn2cc(C)c(=O)[nH]c2=O)cc1C1OC(c2ccccc2)=NN1C(C)=O (centres unmarked) — IC50 (parasite growth, SYBR Green; amastigote): > 100 µM
CCOC(=O)CNC(=O)CN1C(=O)S/C(=C\c2ccc(OC)c(O)c2)C1=O — IC50 (parasite growth, resazurin; promastigote): > 100 µM
Cc1cc2[nH]c(C(=O)Nc3ccccc3C)c(CN3CCOCC3)c2s1 — IC50 (parasite growth; THP-1; 96 h, intracellular, amastigote): > 80 µM
COc1ccc(CCNC(=O)C(=O)[C@H](Cc2ccccc2)NC(=O)c2oc3cc(OC)c(OC)cc3c(=O)c2C)cc1 — IC50 (parasite growth; 72 h, promastigote): 12 µM
O=C(NCCNCCO)c1cn(Cc2cccc(Br)c2)c2cc(Cl)c(OCc3ccc(C(F)(F)F)cc3)cc2c1=O — IC50 (Bob promastigotes; 120 h): > 20 µM
CCOC(=O)C(CC)NC(=O)CN1C(=O)S/C(=C\c2ccc(C)cc2)C1=O (centres unmarked) — IC50 (parasite growth, resazurin; promastigote): 9.98 µM
CC(=O)Oc1ccc(Cn2cc(F)c(=O)[nH]c2=O)cc1C1OC(c2cccc(Cl)c2)=NN1C(C)=O (centres unmarked) — IC50 (parasite growth, SYBR Green; amastigote): > 100 µM
COc1cc(O)c(-c2cc(-c3c(C)cc(O)c4c(OC)ccc(-c5c(O)cc(OC)c6c5C[C@@H](C)N(C)[C@@H]6C)c34)c(O)c3c(OC)cc(C)cc23)c2c1[C@@H](C)N(C)[C@H](C)C2 — IC50 (MHOM/ET/67/L82, amastigotes): 65.5 µM
CCOC(=O)C(NC(=O)CN1C(=O)N/C(=C\c2ccc3c(c2)OCO3)C1=O)C(C)C (centres unmarked) — IC50 (parasite growth; 72 h, intracellular, amastigote): > 10 µM
Cc1nc(C(=O)N2CCC[C@H]2C(=O)N[C@@H](CCC(=O)O)C(=O)N[C@@H](CC(C)C)C(=O)NC(C)(C)C(=O)N[C@@H](CC(C)C)C(=O)N[C@@H](CC(C)C)C(=O)NC(C)(C)C(=O)NC(C)(C)C(=O)NCCC(=O)NC2(CN(C)C)CCC2)co1 — IC50 (resazurin; MHOM/ET/67/L-82 axenic amastigotes): > 8.56 µM
CCOC(=O)C(NC(=O)CN1C(=O)/C(=C/c2ccc3c(c2)OCO3)SC1=S)C(C)C (centres unmarked) — IC50 (parasite growth; 24 h, intracellular, amastigote): 0.62 µM
CC(=O)Oc1ccc(Cn2cc(F)c(=O)[nH]c2=O)cc1C1OC(c2ccccc2)=NN1C(C)=O (centres unmarked) — IC50 (parasite growth, SYBR Green; RAW264.7; intracellular, amastigote): > 100 µM
O=C(NCCNCCO)c1cn(Cc2ccc(F)cc2)c2cc(Cl)c(OCc3ccc(C(F)(F)F)cc3)cc2c1=O — IC50 (Bob promastigotes; 120 h): > 20 µM
CC(=O)Oc1ccc(Cn2cc(C)c(=O)[nH]c2=O)cc1C1OC(c2cccc(Cl)c2)=NN1C(C)=O (centres unmarked) — IC50 (parasite growth, SYBR Green; amastigote): > 100 µM
COC(=O)/C=C/c1ccc(O)c([N+](=O)[O-])c1 — IC50 (parasite growth; 70 h, amastigote): 1.2 µM
O=C1C(O)=C(I)C(=O)c2ccccc21 — IC50 (parasite growth, SYBR Green; RAW264.7; 48 h, intracellular, amastigote): 13.2 µM
CCCCCCCCOC(=O)/C=C/c1ccc(O)c(O)c1 — IC50 (parasite growth; 70 h, amastigote): 0.2 µM
CCn1cc(C(=O)NCCNCCO)c(=O)c2cc(OCc3cccc(C)c3)c(Cl)cc21 — IC50 (Bob promastigotes; 120 h): > 20 µM
CC/C(=C\c1ccc(OCC(=O)NC(C(=O)N2CCSCC2)c2ccccc2)cc1)[N+](=O)[O-] (centres unmarked) — IC50 (macrophages, intracellular amastigotes; 72 h): 0.64 µM
CCCCOC(=O)/C=C/c1ccc(O)c([N+](=O)[O-])c1 — IC50 (parasite growth; 70 h, amastigote): 0.42 µM
CCCCCCCCCC1CC2CCC3CC(CCCCCCCCC)NC(=N1)N23 (centres unmarked) — IC50 (parasite growth, Alamar Blue; promastigotes): 2.39 µM
CC(=O)Oc1ccc(Cn2cc(F)c(=O)[nH]c2=O)cc1C1OC(c2ccc(Cl)cc2)=NN1C(C)=O (centres unmarked) — IC50 (parasite growth, SYBR Green; amastigote): 56.3 µM
CCOC(=O)C(C)NC(=O)CN1C(=O)N/C(=C\c2ccc(C)cc2)C1=O (centres unmarked) — IC50 (parasite growth; 72 h, intracellular, amastigote): > 10 µM
CC(=O)Oc1ccc(Cn2ccc(=O)[nH]c2=O)cc1C1OC(c2cccc(Cl)c2)=NN1C(C)=O (centres unmarked) — IC50 (parasite growth, SYBR Green; amastigote): > 100 µM
CC/C(=C\c1ccc(OCC(=O)NC(C(=O)N2CCOCC2)c2ccccc2)cc1)[N+](=O)[O-] (centres unmarked) — IC50 (macrophages, intracellular amastigotes; 72 h): 6.37 µM
CC(=O)Oc1ccc(Cn2ccc(=O)[nH]c2=O)cc1C1OC(c2ccc(Cl)cc2)=NN1C(C)=O (centres unmarked) — IC50 (parasite growth, SYBR Green; RAW264.7; intracellular, amastigote): > 100 µM
CCOC(=O)C(NC(=O)CN1C(=O)/C(=C/c2ccc([N+](=O)[O-])cc2)SC1=S)C(C)C (centres unmarked) — IC50 (parasite growth, resazurin; promastigote): 59.6 µM
CC(=O)Oc1ccc(Cn2cc(C)c(=O)[nH]c2=O)cc1C1OC(c2ccc(Cl)cc2)=NN1C(C)=O (centres unmarked) — IC50 (parasite growth, SYBR Green; amastigote): > 100 µM
CCOC(=O)C(CC)NC(=O)CN1C(=O)S/C(=C\c2ccc([N+](=O)[O-])cc2)C1=O (centres unmarked) — IC50 (parasite growth; 72 h, intracellular, amastigote): > 10 µM

For quick reference, copied from above:
Cc1cc2[nH]c(C(=O)Nc3ccccc3C)c(CN3CCOCC3)c2s1 — IC50 (parasite growth; THP-1; 96 h, intracellular, amastigote): > 80 µM
COc1ccc(CCNC(=O)C(=O)[C@H](Cc2ccccc2)NC(=O)c2oc3cc(OC)c(OC)cc3c(=O)c2C)cc1 — IC50 (parasite growth; 72 h, promastigote): 12 µM
O=C(NCCNCCO)c1cn(Cc2cccc(Br)c2)c2cc(Cl)c(OCc3ccc(C(F)(F)F)cc3)cc2c1=O — IC50 (Bob promastigotes; 120 h): > 20 µM
